{"data": "Measurements collected from several papers", "note": "Numbered parts are unrelated; each lists some results of a single study. Changes are numbered by the printed parent chain."}
{"data": "Study 1", "target": "ABI1, truncated, D143A, DHFR fusion (Arabidopsis thaliana)", "method": "DHFR PCA, deep sequencing", "matrix": "yeast", "notes": "methotrexate growth selection, single substitutions", "together with": "(+)-ABA 58 µM", "relative to": "wild-type fitted maximum", "direction": "higher = stronger binding", "parent": "PYL1, truncated, DHFR fusion (Arabidopsis thaliana); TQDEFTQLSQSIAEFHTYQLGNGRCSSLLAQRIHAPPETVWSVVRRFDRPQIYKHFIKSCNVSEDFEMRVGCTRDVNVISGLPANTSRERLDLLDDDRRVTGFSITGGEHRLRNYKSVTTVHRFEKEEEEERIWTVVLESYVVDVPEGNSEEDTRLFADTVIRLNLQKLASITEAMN"}
{"Change": "I79P", "relative binding score [%]": 18.9}
{"Change": "V76Q", "relative binding score [%]": 4.51}
{"Change": "V100A", "relative binding score [%]": 92.6}
{"Change": "T154Q", "relative binding score [%]": 0.597}
{"Change": "E152N", "relative binding score [%]": 76.2}
{"Change": "G71C", "relative binding score [%]": 16.8}
{"Change": "S171R", "relative binding score [%]": 84.8}
{"Change": "S87F", "relative binding score [%]": 3.31}
{"Change": "D97E", "relative binding score [%]": 94.8}
{"Change": "N22H", "relative binding score [%]": 96.8}
{"Change": "F15M", "relative binding score [%]": 64.2}
{"Change": "Y141Q", "relative binding score [%]": -4.6}
{"Change": "T73H", "relative binding score [%]": 82.5}
{"Change": "R46K", "relative binding score [%]": 73.8}
{"data": "Study 2", "target": "Interferon regulatory factor 5, full length, phosphomimetic (IRF5, Homo sapiens, UniProt Q13568-2, residues 1-514, S451D/S453D/S456D/S462D)", "method": "protein-binding microarray", "molecule type": "double-stranded DNA, one strand shown", "matrix": "in vitro", "tested at": "940 nM top", "notes": "60-bp whole probe", "together with": "salmon DNA 0.4 mg/ml", "relative to": "random background probes", "direction": "higher = stronger binding", "all sequences stand within": "GCCTAGCAC … GTCTTGATTCGCTTGACGCTGCTG"}
{"Strand": "GACGGTTTCGGATCCGGGACGTGCTAG", "fitted relative affinity": "7.92 z-score"}
{"Strand": "TTAGGTATCGACTATCCGTTAGTGCTA", "fitted relative affinity": "6.28 z-score"}
{"Strand": "TTAGGCTTCGGTTTCGGTTAGTGCTAG", "fitted relative affinity": "7.58 z-score"}
{"Strand": "TTAGGTTTCCTTTTCCCTTAGTGCTAG", "fitted relative affinity": "2.56 z-score"}
{"Strand": "GTAGGTTCCCTTTTCCTTTAGTGCTAG", "fitted relative affinity": "0.758 z-score"}
{"Strand": "GTAGGTATCGGGTTTCGGTTAGTGCTA", "fitted relative affinity": "7.37 z-score"}
{"Strand": "TAAGATTTCGGGACTGGATTAGTGCTA", "fitted relative affinity": "0.4 z-score"}
{"Strand": "GACGGTTTCGGTTCCGCGACGTGCTAG", "fitted relative affinity": "14.3 z-score"}
{"Strand": "CTAGGTTTCCTTCTCCTTTAGTGCTAG", "fitted relative affinity": "1.33 z-score"}
{"Strand": "TTGGATTTCAGACTGGATTAGTGCTAG", "fitted relative affinity": "-0.499 z-score"}
{"Strand": "TCATTTTTTTCTATATGACTGTGCTAG", "fitted relative affinity": "1.57 z-score"}
{"Strand": "GCCGGTCTCGGTCTCGGGACGTGCTAG", "fitted relative affinity": "5.03 z-score"}
{"Strand": "TTAGGTTTCTACTTTCGGTTAGTGCTA", "fitted relative affinity": "6.18 z-score"}
{"Strand": "TCACATATACACTGTGTATCTGTGCTA", "fitted relative affinity": "0.24 z-score"}
{"data": "Study 3", "target": "RNA binding protein fox-1 homolog 2, RRM domain, GST-SBP tag (RBFOX2, Homo sapiens, UniProt O43251-10, residues 100-194)", "method": "RNA Bind-n-Seq", "molecule type": "RNA", "matrix": "in vitro", "tested at": "365 nM", "notes": "natural RNA segment, single round, ends assumed", "relative to": "no-protein control", "direction": "higher = stronger binding", "all sequences stand within": "GGGAGUUCUACAGUCCGACGAUC … UGGAAUUCUCGGGUGCCAA", "Construct (chain)": "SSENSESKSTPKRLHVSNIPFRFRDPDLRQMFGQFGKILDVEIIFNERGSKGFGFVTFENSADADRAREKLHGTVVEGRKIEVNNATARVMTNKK"}
{"Strand": "AUGCCUUUUUAAAAUUUAAUUUUCUAGCUGGCUCCAAUUCAAAUUGAGGAUUUAUGUAUUAGGCCACUUACUUGGUUGGCAAGUGCAGGAACUCAGUUAAAAUGCAGUUG", "RBNS enrichment (R)": 0.365}
{"Strand": "UAAGAGUUAAAUAUUACUGAAUUUCAGACGUUCAAAUUGAUCAUCAGAAAUCCUUUAAAACAAUUACCUAAAAGAAACCAAAAAUCCUGCCUUCUUUGUUGGGGGGAGAA", "RBNS enrichment (R)": 0.419}
{"Strand": "CAAAGCAGGGUGGGGUAGGUGACAUUUGUGUAUCCACAUUCUUACCUUUGGUAGUCAGGUUUGGCUACUUUGCAGCUCGCCCAAAGAGAUACAACCUAAUCCCCAACCUA", "RBNS enrichment (R)": 0.629}
{"Strand": "GCCUUAUCUUGUGGCCUUCCAAAAUAGGUUGUUUGCCUGUGUGGAGACAACAGUGCGGGAGUCCUGAGUGCUGGCUGUGCAGCCAGUUAAGUGUUCAUGUUCUAGUGAGC", "RBNS enrichment (R)": 0.434}
{"Strand": "UCAUACUGGGAGGACCCCAGCUUUUCUUGCCAGCUCAGCAGUUCACUUCCUAGAGCAUCUGUCCCACUGGGACACAACCACUAAUUUGUCACUGGAACCUCCCUGGGCCU", "RBNS enrichment (R)": 0.574}
{"Strand": "AGUGCUGAGGGCCAGUGUUGACCCACACUACCCUCCCUUGACCAGCUGUCUGGGACCGGAAACCAGCUUUGUCUCCAGGUAGAGACAACAUCCUGUGACUGCCAGGCAGA", "RBNS enrichment (R)": 0.315}
{"Strand": "AGUCGGGAACAUGUCCAUUCUACCUCAGGGUUGGGUGGUGCGAGGCCAAGCCAGGCCUGGCUGUGUCUGUAGUCAUUUGCCCUCUCAUUCGGCCUAUAUCUGACCAUUAG", "RBNS enrichment (R)": 0.191}
{"Strand": "CCCAAGUCACUACAGUUGGUUCUAUUGAAGCCAGUCUUUAAGAAACCUGGGUUAAAGACACCAGCACUUCUGCUUGCUGGGCUGGCUGGACCUGUGAAGCCAUGGGCAGG", "RBNS enrichment (R)": 1.17}
{"Strand": "GUGGUCCCUUGUUAGUACCGAAGUGCAAAAAAGAAAUGCAGUUCUGUGUUUGGAACAAGAAGCAUCUCAGCAUUCUGUGAGAUCUGCAUGGAUCCUGUGGGUGGAGUCAG", "RBNS enrichment (R)": 0.783}
{"Strand": "AGGAUCCCUGACCCUAGCGAUACUUAACAGUUCUUCCCAUGUCCUAUGGUAUCUGUGCUUUUGGCUGGGUAAAAGUACAGCCAGAGACGGCUUACUGGGUUUAGAAUGGA", "RBNS enrichment (R)": 0.391}
{"Strand": "UCAAGACAUUUCCACUGCAGUUUCAAGCUGUAGUGGGCAUAUGCUUCAUUUACUUCCAAAGAGGCAAAAGCAGCUGGAAUUGGCUUACAGCACAUGCUUUGUUUCAUGUU", "RBNS enrichment (R)": 0.465}
{"Strand": "AGGAAAUGGCCACAUGUGUGGAUGGUUUAAUUAGAUUCUGUGGAGUCUCACAGUGGGAUUGUGGUUGUCUGAGGACACUUUGGGGGGUCGCUGUCCAAGAAGUGGCUCCC", "RBNS enrichment (R)": 0.809}
{"data": "Study 4", "target": "Transcription factor SOX-2, HMG box (Sox2, Mus musculus, UniProt P48432, residues 41-119)", "method": "Spec-seq", "molecule type": "double-stranded DNA, one strand shown", "matrix": "in vitro", "tested at": "not given", "notes": "whole probe, mean of replicates", "relative to": "not given", "direction": "lower = stronger binding", "all sequences stand within": "GAGTCGTCTCGTCAGCAC … CCGTAGAGCACTCAGGTC", "chain of UniProt P48432 (41-119, looked up)": "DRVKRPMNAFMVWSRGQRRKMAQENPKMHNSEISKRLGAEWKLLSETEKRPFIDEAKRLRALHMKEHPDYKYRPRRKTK"}
{"Strand": "TGTTGTT", "relative binding energy [ln ratio]": -1.71}
{"Strand": "CATCTTT", "relative binding energy [ln ratio]": 0.435}
{"Strand": "TTGTGTT", "relative binding energy [ln ratio]": -0.686}
{"Strand": "CCACGTT", "relative binding energy [ln ratio]": 1.13}
{"Strand": "GGTCGTT", "relative binding energy [ln ratio]": 1.31}
{"Strand": "CATCGGC", "relative binding energy [ln ratio]": 0.583}
{"Strand": "CATATGT", "relative binding energy [ln ratio]": 0.0139}
{"Strand": "ATGAGTT", "relative binding energy [ln ratio]": 0.674}
{"Strand": "AACAGTT", "relative binding energy [ln ratio]": -1.01}
{"Strand": "CATGTCC", "relative binding energy [ln ratio]": 0.762}
{"Strand": "AAATGTT", "relative binding energy [ln ratio]": -0.946}
{"Strand": "AGACGTT", "relative binding energy [ln ratio]": 0.9}
{"Strand": "CATCGTC", "relative binding energy [ln ratio]": 0.629}
{"Strand": "CACCGTT", "relative binding energy [ln ratio]": 0.784}
{"Strand": "CATAACC", "relative binding energy [ln ratio]": 0.221}
{"Strand": "CAGTGTT", "relative binding energy [ln ratio]": -0.799}
{"Strand": "GATAGTT", "relative binding energy [ln ratio]": -0.121}
{"Strand": "CATATTT", "relative binding energy [ln ratio]": 0.0183}
{"Strand": "CATTGGC", "relative binding energy [ln ratio]": -0.268}
{"Strand": "CCTCGTT", "relative binding energy [ln ratio]": 0.937}
{"Strand": "CATGATT", "relative binding energy [ln ratio]": 0.0522}
{"Strand": "ATTAGTT", "relative binding energy [ln ratio]": -0.321}
{"Strand": "AGCTGTT", "relative binding energy [ln ratio]": 0.0947}
{"data": "Study 5", "target": "CCNA2, cyclin fold, Cln2 fusion (human)", "method": "yeast growth competition, sequencing", "matrix": "yeast", "notes": "strong parent motif", "relative to": "not given", "direction": "higher = stronger binding", "parent": "RRM2 docking peptide (human); SKTARRIFQEPTE"}
{"Change": "T3A", "normalised enrichment score": 0.759}
{"Change": "E10A", "normalised enrichment score": 0.622}
{"Change": "R6A", "normalised enrichment score": 0.348}
{"Change": "S1A", "normalised enrichment score": 0.892}
{"Change": "Q9A", "normalised enrichment score": 0.96}
{"Change": "E13A", "normalised enrichment score": 0.871}
{"data": "Other studies, line by line"}
{"Substance": "PhoQ, residues 284 288 289 292 302 303 QWQEDG", "target": "PhoP, residues 12 14 15 18 19 NMSFL (Escherichia coli, UniProt P23836)", "assay": "Sort-seq, refers to: YFP reporter", "test system": "E. coli", "conditions": "PhoQ-PhoP variant library, together with: 10 µM Mg2+", "how to read": "relative to: high Mg2+ state, higher = stronger signaling", "measurement": "fold induction", "result": 16.5}
{"note": "For quick reference, copied from above (study 1):"}
{"Change": "N22H", "relative binding score [%]": 96.8}
{"Change": "R46K", "relative binding score [%]": 73.8}
{"Change": "Y141Q", "relative binding score [%]": -4.6}
{"Change": "E152N", "relative binding score [%]": 76.2}
{"Change": "V100A", "relative binding score [%]": 92.6}
{"Change": "G71C", "relative binding score [%]": 16.8}
{"Change": "S87F", "relative binding score [%]": 3.31}
{"Change": "V76Q", "relative binding score [%]": 4.51}
{"Change": "S171R", "relative binding score [%]": 84.8}
